Experimental data pooled from the literature.
Protocols differ between the studies behind these lines. Several values in a cell are separate wells, animals, samples, runs or records. Numbers after ± are the reported error.
T1: TOA1/TOA2 1-286; 1-122 (Saccharomyces cerevisiae); chain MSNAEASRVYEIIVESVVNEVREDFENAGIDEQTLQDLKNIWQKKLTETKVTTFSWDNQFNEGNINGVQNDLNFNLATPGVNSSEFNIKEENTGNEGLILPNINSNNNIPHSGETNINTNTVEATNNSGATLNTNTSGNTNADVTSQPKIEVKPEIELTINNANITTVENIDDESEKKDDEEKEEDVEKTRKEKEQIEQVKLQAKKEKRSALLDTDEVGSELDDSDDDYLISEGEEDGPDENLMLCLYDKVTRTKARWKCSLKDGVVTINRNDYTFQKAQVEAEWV; chain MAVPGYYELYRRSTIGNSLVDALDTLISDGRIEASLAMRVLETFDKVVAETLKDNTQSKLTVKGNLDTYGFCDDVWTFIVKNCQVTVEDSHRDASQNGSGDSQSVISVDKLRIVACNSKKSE
B1: human PHGDH; sequence looked up; chain AFANLRKVLISDSLDPCCRKILQDGGLQVVEKQNLSKEELIAELQDCEGLIVRSATKVTADVINAAEKLQVVGRAGTGVDNVDLEAATRKGILVMNTPNGNSLSAAELTCGMIMCLARQIPQATASMKDGKWERKKFMGTELNGKTLGILGLGRIGREVATRMQSFGMKTIGYDPIISPEVSASFGVQQLPLEEIWPLCDFITVHTPLLPSTTGLLNDNTFAQCKKGVRVVNCARGGIVDEGALLRALQSGQCAGAALDVFTEEPPRDRALVDHENVISCPHLGASTKEAQSRCGEEIAVQFVDMVKGKSLTGVVNAQALTSAFSPHTKPWIGLAEALGTLMRAWAGSPKGTIQVITQGTSLKNAGNCLSPAVIVGLLKEASKQADVNLVNAKLLVKEAGLNVTTSHSPAAPGEQGFGECLLAVALAGAPYQAVGLVQGTTPVLQGLNGAVFRPEVPLRRDLPLLLFRTQTSDPAMLPTMIGLLAEAGVRLLSYQTSLVSDGETWHVMGISSLLPSLEAWKQHVTEAFQFHF
B2: threonyl-tRNA synthetase, cytoplasmic (human); sequence looked up; chain MFEEKASSPSGKMGGEEKPIGAGEEKQKEGGKKKNKEGSGDGGRAELNPWPEYIYTRLEMYNILKAEHDSILAEKAEKDSKPIKVTLPDGKQVDAESWKTTPYQIACGISQGLADNTVIAKVNNVVWDLDRPLEEDCTLELLKFEDEEAQAVYWHSSAHIMGEAMERVYGGCLCYGPPIENGFYYDMYLEEGGVSSNDFSSLEALCKKIIKEKQAFERLEVKKETLLAMFKYNKFKCRILNEKVNTPTTTVYRCGPLIDLCRGPHVRHTGKIKALKIHKNSSTYWEGKADMETLQRIYGISFPDPKMLKEWEKFQEEAKNRDHRKIGRDQELYFFHELSPGSCFFLPKGAYIYNALIEFIRSEYRKRGFQEVVTPNIFNSRLWMTSGHWQHYSENMFSFEVEKELFALKPMNCPGHCLMFDHRPRSWRELPLRLADFGVLHRNELSGALTGLTRVRRFQQDDAHIFCAMEQIEDEIKGCLDFLRTVYSVFGFSFKLNLSTRPEKFLGDIEVWDQAEKQLENSLNEFGEKWELNSGDGAFYGPKIDIQIKDAIGRYHQCATIQLDFQLPIRFNLTYVSHDGDDKKRPVIVHRAILGSVERMIAILTENYGGKWPFWLSPRQVMVVPVGPTCDEYAQKVRQQFHDAKFMADIDLDPGCTLNKKIRNAQLAQYNFILVVGEKEKISGTVNIRTRDNKVHGERTISETIERLQQLKEFRSKQAEEEF
B3: human SFPQ; sequence looked up; chain MSRDRFRSRGGGGGGFHRRGGGGGRGGLHDFRSPPPGMGLNQNRGPMGPGPGQSGPKPPIPPPPPHQQQQQPPPQQPPPQQPPPHQPPPHPQPHQQQQPPPPPQDSSKPVVAQGPGPAPGVGSAPPASSSAPPATPPTSGAPPGSGPGPTPTPPPAVTSAPPGAPPPTPPSSGVPTTPPQAGGPPPPPAAVPGPGPGPKQGPGPGGPKGGKMPGGPKPGGGPGLSTPGGHPKPPHRGGGEPRGGRQHHPPYHQQHHQGPPPGGPGGRSEEKISDSEGFKANLSLLRRPGEKTYTQRCRLFVGNLPADITEDEFKRLFAKYGEPGEVFINKGKGFGFIKLESRALAEIAKAELDDTPMRGRQLRVRFATHAAALSVRNLSPYVSNELLEEAFSQFGPIERAVVIVDDRGRSTGKGIVEFASKPAARKAFERCSEGVFLLTTTPRPVIVEPLEQLDDEDGLPEKLAQKNPMYQKERETPPRFAQHGTFEYEYSQRWKSLDEMEKQQREQVEKNMKDAKDKLESEMEDAYHEHQANLLRQDLMRRQEELRRMEELHNQEMQKRKEMQLRQEEERRRREEEMMIRQREMEEQMRRQREESYSRMGYMDPRERDMRMGGGGAMNMGDPYGSGGQKFPPLGGGGGIGYEANPGVPPATMSGSMMGSDMRTERFGQGGAGPVGGQGPRGMGPGTPAGYGRGREEYEGPNKKPRF
Sequence of UniProt P29055 (whole entry, looked up): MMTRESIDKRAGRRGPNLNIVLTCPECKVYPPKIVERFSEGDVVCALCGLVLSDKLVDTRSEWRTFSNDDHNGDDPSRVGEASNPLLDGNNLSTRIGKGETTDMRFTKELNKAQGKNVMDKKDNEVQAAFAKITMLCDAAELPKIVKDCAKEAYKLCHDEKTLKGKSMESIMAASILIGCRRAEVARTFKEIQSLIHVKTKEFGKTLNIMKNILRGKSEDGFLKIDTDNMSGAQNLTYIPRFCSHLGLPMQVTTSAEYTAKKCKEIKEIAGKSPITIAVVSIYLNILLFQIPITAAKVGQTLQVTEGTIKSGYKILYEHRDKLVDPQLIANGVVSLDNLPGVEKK

| Molecule | target or system | assay | test system | conditions | how to read | measurement | result |
| --- | --- | --- | --- | --- | --- | --- | --- |
| difelikefalin | – | – | Japanese haemodialysis patients with pruritus | intravenous, 0.5 µg/kg, 8 weeks | – | PGIC minimally improved | 22% |
| Peginesatide | UT7/EPO | phosphorylation, agonist, refers to: phospho-ERK1/2 | – | 10 min | relative to: rHuEPO maximum | Emax | 92 ± 8% |
| GSGAGSETKM | construct, MBP fusion, human SCRIB, PDZ 3-4 | automated holdup | peptide, crude extract | concentration not given, corrected by standard peak, unit not given | relative to: biotin control resin, higher = stronger binding | binding intensity | 0.102 |
| FGA (Homo sapiens, UniProt P02671) | SLC27A1 (Homo sapiens, UniProt Q6PCB7) | cross-linking MS | – | added: DSSO | – | cross-linked residues | K243 to K49 |
| PTBP1 (human) | CYB5R4 knockout human cells | PP6 interaction, 3xFLAG-PP6C IP-MS | – | concentration not given | relative to: CYB5R4 KO over parental | log2 fold change | -0.37 |
| GSGAGSETSV | construct, MBP fusion, human SCRIB, PDZ 3-4 | automated holdup | peptide, crude extract | concentration not given, uncorrected, unit not given | relative to: biotin control resin, higher = stronger binding | binding intensity | 0.404 |
| VVVGAAGVGK | HLA-A*11:01 peptide-β2M single-chain trimer | western blot, refers to: pMHC-I | peptide, 293T cells | 24 h, unit not given, added: 100 µg/mL cycloheximide | relative to: time zero | remaining protein | 0.632 and 0.656 and 0.638 |
| QGRWDHETIV | construct, MBP fusion, human SCRIB, PDZ 3-4 | automated holdup | peptide, crude extract | concentration not given, corrected by standard peak, unit not given | relative to: biotin control resin, higher = stronger binding | binding intensity | 0.395 |
| FNA / CGLSGLGVA-NH2 ([18F]FNA-labelled, C-amide) | – | gamma counting | peptide, glioblastoma mice, femur (bone and marrow) | 60 min, added: CooP blocking, 500-fold excess | – | tissue uptake | 0.41 %ID/g |
| B1 (human PHGDH) | CYB5R4 knockout human cells | PP4 interaction, 3xFLAG-PP4C IP-MS | – | concentration not given | relative to: CYB5R4 KO over parental | log2 fold change | -0.84 |
| epoetin alfa | UT7/EPO | RT-qPCR, refers to: CD80 | – | concentration not given, 90 min | relative to: vehicle | mRNA fold induction | 2.7 fold |
| colistin | Pseudomonas aeruginosa | broth microdilution | clinical isolate RKI-No_600/15 | – | – | MIC | 2 µg/mL |
| human GAPDH | CYB5R4 knockout human cells | PP4 interaction, 3xFLAG-PP4C IP-MS | – | concentration not given | relative to: CYB5R4 KO over parental | log2 fold change | 2.61 |
| GSGAGSETVV | construct, MBP fusion, human SCRIB, PDZ 3-4 | automated holdup | peptide, crude extract | concentration not given, corrected by standard peak, unit not given | relative to: biotin control resin, higher = stronger binding | binding intensity | 0.13 |
| human heat shock protein beta-1 | CYB5R4 knockout human cells | PP4 interaction, 3xFLAG-PP4C IP-MS | – | concentration not given | relative to: CYB5R4 KO over parental | log2 fold change | -0.15 |
| human ME2 F68V | – | enzyme activity, NADH absorbance | – | without fumarate, added: L-malate varied | – | Hill coefficient | 1.59 ± 0.07 |
| methyl-β-cyclodextrin | KCNH2 (Homo sapiens, UniProt Q12809) | whole-cell patch clamp | – | concentration not given, at -10 mV | – | peak current density | 41 ± 9.5 pA/pF |
| B2 | PP6C (human) | co-immunoprecipitation, IP-MS | CYB5R4 knockout cells | concentration not given | relative to: CYB5R4 knockout over parental | log2 fold change | 0.49 |
| Neuropeptide Y | – | RP-HPLC | HALO Phenyl-hexyl column | 25 µM, acetic acid/methanol, 10 min gradient | – | retention time | 8.86 min |
| milbemycin oxime | Saccharomyces cerevisiae | cell growth | Pdr5 deleted, Cdr1 overexpressed | 2^-5.381 µg/mL, added: fluconazole 1 µg/mL | – | OD600 | 0.934 and 0.958 and 0.969 |
| B3 (human SFPQ) | CYB5R4 knockout human cells | PP4 interaction, 3xFLAG-PP4C IP-MS | – | concentration not given | relative to: CYB5R4 KO over parental | log2 fold change | 0.68 |
| Polymyxin B | Klebsiella pneumoniae | – | ATCC 43863 | concentration not given | – | glutathione peroxidase activity | 2.83 U/mg and 2.7 U/mg and 2.79 U/mg |
| cotadutide | – | metabolomics, refers to: hepatic 1-palmitoylglycerol (16:0) | ob/ob mice on AMLN diet, NASH model, liver | dose not given | – | metabolite level | 0.69 ± 0.25 scaled intensity |
| TTCCTGAAGGGGGGCTATAAAAGGGGGTGGGGGCGTCAAGTCAATCGGTCC (dsDNA; 5'-amino-C6 primer) | SUA7 full length assumed (Saccharomyces cerevisiae, UniProt P29055) | array | double-stranded DNA, one strand shown | TFIIB alone | – | Kd | 2.73 ± 1.13 nM |
| caspofungin | – | – | adult ICU patients, mITT, serum | dose not given, day 30 | – | alanine aminotransferase | 20 U/L |
| DNA 1 GATCGATCGATCGATCGATCGATCGATCGATCGATTCAATTCAATCGGTCC / DNA 2 GGACCGATTGACTTGAATCGATCGATCGATCGATCGATCGATCGATCGATC (dsDNA; 5'-amino-C6 primer) | T1, TOA1/TOA2 1-286; 1-122 (Saccharomyces cerevisiae) | array | double-stranded DNA | TFIIA alone | – | Kd | 117 ± 60.5 nM |
| 11-deoxycorticosterone | CYP11B2 (human) | substrate binding, stopped-flow global kinetic fitting | purified enzyme | model, 4-state, linear IF, added: 10-fold excess adrenodoxin | – | Kd | 1520 nM |

A few entries again:
| Molecule | target or system | assay | test system | conditions | how to read | measurement | result |
| --- | --- | --- | --- | --- | --- | --- | --- |
| TTCCTGAAGGGGGGCTATAAAAGGGGGTGGGGGCGTCAAGTCAATCGGTCC (dsDNA; 5'-amino-C6 primer) | SUA7 full length assumed (Saccharomyces cerevisiae, UniProt P29055) | array | double-stranded DNA, one strand shown | TFIIB alone | – | Kd | 2.73 ± 1.13 nM |
| B3 (human SFPQ) | CYB5R4 knockout human cells | PP4 interaction, 3xFLAG-PP4C IP-MS | – | concentration not given | relative to: CYB5R4 KO over parental | log2 fold change | 0.68 |
